Measurements pooled from the literature.
Each line is one published result; not all experiments were run side by side.
Target: Serine/threonine-protein kinase N1 (PKN1, Homo sapiens, UniProt Q16512)

C=CC(=O)Nc1cccc(-c2cnc3[nH]cc(C(=O)NC(C)(C)C)c3n2)c1  inhibition (enzyme activity, inhibitor; 0.1 µM): -5%
NC(=O)C[C@H]1CCc2sc3ncnc(O[C@H]4CC[C@H](N5CCOCC5)CC4)c3c21  inhibition (enzyme activity, inhibitor; 10 µM): 6%
Cc1ccc(-c2c(/C=C(\C#N)C(=O)NC(C)C)n(CCCO)c3ncnc(N)c23)cc1  remaining binding (cell-free assay, competition with immobilised ligand; 1 µM): 100%
CCN1CCN(Cc2ccc(C(=O)Nc3ccc(C)c(NCc4cnc5[nH]ccc5c4OC)c3)cc2C(F)(F)F)CC1  remaining binding (binding, competition with immobilised ligand; 1 µM): 100%
Cc1c[nH]c2nccc(-c3ccc(C(=O)N[C@@H]4c5c(F)cc(C(F)F)cc5C[C@@H]4O)cn3)c12  remaining binding (binding, competition with immobilised ligand; 3 µM): 59%
COc1c(Cl)cccc1Nc1c(-c2ccncc2C#C[C@@]2(C)CCCN2C(=O)/C=C/CN(C)C)[nH]c2c1C(=O)NCC2  remaining binding (binding, competition with immobilised ligand; 3 µM): 100%
CNC1C[S+]2CC[S+]3CC[S+](C1)[Ru-4]321([N]=C=S)[n]2c3ccc(OC)cc3c3c4c(c5cc(F)c[n+]1c5c32)C(=O)NC4=O (stereo not drawn)  remaining binding (KinomeScan; 0.1 µM; relative to: untreated): 88%
CNC(=O)C1CCN(c2cc(C)c(F)cc2NC(=O)c2ccc(-c3cc(O)ccc3C)c(C)c2)CC1  remaining binding (binding, competition with immobilised ligand; 1 µM): 83%
Nc1ncc(-c2cc(-c3cnn(CC(F)(F)F)c3)ncc2F)nc1C(=O)NC1CNCC(F)C1 (stereo not drawn)  remaining activity (enzyme activity; 1 µM; relative to: DMSO control): 94.5%
O=C(Cc1ccc(OCc2ccccc2)cc1)NC1(C(=O)O)CCN(C(=O)c2ccc(-c3cccc(Cl)c3)cc2)CC1  activity vs control (enzyme activity, inhibitor; 10 µM): 114%
C=CC(=O)N1Cc2nc(-c3cc(-c4cc(Cl)cnc4Cl)c(F)cc3F)n(-c3ccncn3)c2C1  inhibition (cell-free assay, inhibitor; 1 µM): 1.7%
Nc1ncc2c(n1)-c1c([nH]c3ccc(C4=CCOCC4)cc13)CCC2  remaining binding (binding, competition with immobilised ligand; 1 µM): 100%
Cc1cccc(O[C@H]2CCC[C@@H](C(C)CNCc3ccncc3)C2)c1 (relative stereo)  inhibition (enzyme activity, inhibitor; 10 µM): -7%
COc1cc(Nc2nccc(-c3cnn4nc(OC)ccc34)n2)cc(C(F)(F)F)c1  remaining binding (binding, competition with immobilised ligand; 1 µM): 100%
CN1CCN(Cc2ccc(-c3ccc(CO[C@H]4CCC[C@@H]4NC(=O)c4cc(-c5cnn(C)c5)cnc4N)cc3)cc2)CC1  inhibition (enzyme activity, inhibitor; 0.1 µM): 9%

Some of these lines once more:
CN1CCN(Cc2ccc(-c3ccc(CO[C@H]4CCC[C@@H]4NC(=O)c4cc(-c5cnn(C)c5)cnc4N)cc3)cc2)CC1  inhibition (enzyme activity, inhibitor; 0.1 µM): 9%
